Measured values collected from several papers.
Each line is one published result; not all experiments were run side by side. ± gives the spread as reported.

Under “unbound plasma concentration”, `COc1ccc2c(c1)CN(C(=O)CCN1CCC(Cc3ccccc3)CC1)CC[S@@+]2[O-]` is recorded as 1420 ± 180 nM (female Beagle dogs, chronic AV block, plasma; intravenous, 3 mg/kg, end of 10 min infusion).
For `CCS(=O)(=O)Nc1ccc(Oc2ccc(F)cc2F)c(-c2cn(C)c(=O)c3[nH]ccc23)c1`, “treatment-emergent adverse events” read 5% (fatal Staphylococcal bacteremia; human, relapsed/refractory AML; oral, dose not given).
Under “mean residence time at steady state”, `COc1cc(C(=O)NC2CCN(C)CC2)c(F)cc1Nc1ncc(C(F)(F)F)c(Oc2cccc3c2C(=O)N(C)C3)n1` is recorded as 36.4 h (human patients, plasma; oral, 10 mg once daily repeated, geometric mean).
For `C=CCNc1c(O)cc2c(O)c1C[C@@H](C)C[C@H](OC)[C@H](O)[C@@H](C)/C=C(\C)[C@H](OC(N)=O)[C@@H](OC)/C=C\C=C(/C)C(=O)N2`, “patients with diarrhoea TEAE” read 57% (unresectable or metastatic STS, GIST, other; intravenous, 500 mg/m^2).
`CC(=O)c1c(C)c2cnc(Nc3ccc(C4CCN(CCS(C)(=O)=O)CC4)cn3)nc2n(C2CCCC2)c1=O` has a Tmax of 1.56 h (human, plasma; oral, 75 mg twice daily, day 21, multiple dose, with: letrozole).
`COc1cc2c(Oc3ccc4[nH]c(C)cc4c3F)ccnc2cc1OCC1(N)CC1` — result for “abdominal distension incidence”: 0% (paediatric refractory sarcoma patients; 8 mg).
`CC(C)(C)c1cc(-n2nc3ccccc3n2)c(O)c(C(C)(C)C)c1`: “daily dermal exposure dose” 6.38 ng/kg/day (human aged 3-6 years; concentration not given, sunscreen, 95th percentile).
For `CC(C)(O)c1cc(Nc2cc(Oc3cn(C4CC4)nc3C3CCOCC3)ccn2)ccn1`, “treatment-emergent adverse events” read 8% (Nausea; advanced cancer patients, grade 4 glioma expansion; oral, 50 mg twice daily, all causality any grade).
`CCC[C@H]1CC[C@H](c2ccc(-c3ccc(F)cc3)cc2)CC1`: “mean serum concentration” 0.52 ng/mL (human mother-newborn pairs, female fetuses, cord serum).
`O=[N+]([O-])NC1=NCCN1Cc1ccc(Cl)nc1` — result for “dose fraction in milk fat”: 2.55% (whole cow milk; 2000 nM nominal).
With `CNC(=O)c1cc(Oc2ccc(NC(=O)Nc3cc(C(C)(C)C)nn3-c3ccc4ncccc4c3)c(F)c2)ccn1` the related SAE was 6% (retinal vein occlusion, NCI CTC v3.0; human patients; oral, 100 mg twice daily, tablet, dose at onset).
For `Cn1cc(-c2nc(N[C@@H]3CCCC[C@@H]3N)c(F)c3c2C(=O)NC3)cn1`, “hemorrhagic adverse events” read 11% (item: Hematochezia; patients with relapsed or refractory AML; oral, 160 mg once daily).
For `C=CC(=O)N1CC[C@H](n2nc(C#Cc3cc(OC)cc(OC)c3)c3c(N)ncnc32)C1`, “adverse drug reaction incidence” read 16.7% (patients with advanced solid tumours; oral, dose not given, Malaise, any grade, QD, with: lanthanum carbonate hydrate).
